Assay results from different studies.
Protocols differ between the studies behind these lines. ± marks the error that the study gave.
Aminopeptidase N: Aminopeptidase N (Neisseria meningitidis, UniProt Q9JYV4)
Oprd1: Delta-type opioid receptor (Oprd1, Rattus norvegicus, UniProt P33533)
UniProt P33533, sequence (whole entry, looked up): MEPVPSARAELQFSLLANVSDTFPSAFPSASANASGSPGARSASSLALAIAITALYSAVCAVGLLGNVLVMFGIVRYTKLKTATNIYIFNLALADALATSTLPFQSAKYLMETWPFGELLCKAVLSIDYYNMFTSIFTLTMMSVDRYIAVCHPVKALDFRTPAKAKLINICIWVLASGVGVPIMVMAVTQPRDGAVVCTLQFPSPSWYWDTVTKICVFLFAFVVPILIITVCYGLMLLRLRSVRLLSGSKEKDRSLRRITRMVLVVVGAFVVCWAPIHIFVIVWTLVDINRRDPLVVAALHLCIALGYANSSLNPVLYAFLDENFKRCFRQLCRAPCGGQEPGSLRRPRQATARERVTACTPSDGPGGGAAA
UniProt P81183, sequence (whole entry, unmodified, looked up): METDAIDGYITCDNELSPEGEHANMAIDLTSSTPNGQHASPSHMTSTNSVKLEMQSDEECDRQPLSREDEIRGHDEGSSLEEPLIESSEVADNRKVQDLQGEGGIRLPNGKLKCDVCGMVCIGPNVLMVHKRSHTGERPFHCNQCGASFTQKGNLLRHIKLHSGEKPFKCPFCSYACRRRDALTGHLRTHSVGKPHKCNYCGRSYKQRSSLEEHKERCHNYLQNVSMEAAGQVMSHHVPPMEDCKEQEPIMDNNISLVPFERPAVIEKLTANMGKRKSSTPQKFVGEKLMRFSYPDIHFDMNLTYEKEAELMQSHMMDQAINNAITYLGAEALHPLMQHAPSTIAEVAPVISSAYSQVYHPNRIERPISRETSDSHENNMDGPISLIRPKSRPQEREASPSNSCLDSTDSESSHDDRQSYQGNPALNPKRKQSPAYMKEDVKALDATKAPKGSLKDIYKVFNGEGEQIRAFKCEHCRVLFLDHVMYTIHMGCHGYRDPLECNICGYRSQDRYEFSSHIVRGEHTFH
UniProt P55211, sequence (whole entry, looked up): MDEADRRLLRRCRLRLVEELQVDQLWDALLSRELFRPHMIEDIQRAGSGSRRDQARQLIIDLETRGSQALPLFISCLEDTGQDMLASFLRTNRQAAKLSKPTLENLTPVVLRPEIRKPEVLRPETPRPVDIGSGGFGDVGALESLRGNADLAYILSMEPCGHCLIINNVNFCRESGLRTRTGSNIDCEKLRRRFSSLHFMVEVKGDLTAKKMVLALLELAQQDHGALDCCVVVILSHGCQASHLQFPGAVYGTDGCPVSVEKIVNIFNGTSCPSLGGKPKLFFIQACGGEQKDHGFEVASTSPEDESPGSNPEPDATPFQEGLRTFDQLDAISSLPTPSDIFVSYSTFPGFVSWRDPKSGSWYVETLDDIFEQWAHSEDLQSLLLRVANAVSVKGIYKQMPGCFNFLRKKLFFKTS
UniProt Q86WA6, sequence (whole entry, looked up): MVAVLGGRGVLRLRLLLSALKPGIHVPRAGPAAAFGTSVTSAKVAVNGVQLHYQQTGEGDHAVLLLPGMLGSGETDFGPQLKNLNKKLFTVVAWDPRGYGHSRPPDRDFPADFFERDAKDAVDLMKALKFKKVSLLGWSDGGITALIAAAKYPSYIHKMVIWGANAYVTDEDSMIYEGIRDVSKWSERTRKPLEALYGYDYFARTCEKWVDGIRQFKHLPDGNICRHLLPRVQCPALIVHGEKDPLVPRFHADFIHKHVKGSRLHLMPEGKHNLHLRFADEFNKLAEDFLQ
UniProt P22303, sequence (whole entry, looked up): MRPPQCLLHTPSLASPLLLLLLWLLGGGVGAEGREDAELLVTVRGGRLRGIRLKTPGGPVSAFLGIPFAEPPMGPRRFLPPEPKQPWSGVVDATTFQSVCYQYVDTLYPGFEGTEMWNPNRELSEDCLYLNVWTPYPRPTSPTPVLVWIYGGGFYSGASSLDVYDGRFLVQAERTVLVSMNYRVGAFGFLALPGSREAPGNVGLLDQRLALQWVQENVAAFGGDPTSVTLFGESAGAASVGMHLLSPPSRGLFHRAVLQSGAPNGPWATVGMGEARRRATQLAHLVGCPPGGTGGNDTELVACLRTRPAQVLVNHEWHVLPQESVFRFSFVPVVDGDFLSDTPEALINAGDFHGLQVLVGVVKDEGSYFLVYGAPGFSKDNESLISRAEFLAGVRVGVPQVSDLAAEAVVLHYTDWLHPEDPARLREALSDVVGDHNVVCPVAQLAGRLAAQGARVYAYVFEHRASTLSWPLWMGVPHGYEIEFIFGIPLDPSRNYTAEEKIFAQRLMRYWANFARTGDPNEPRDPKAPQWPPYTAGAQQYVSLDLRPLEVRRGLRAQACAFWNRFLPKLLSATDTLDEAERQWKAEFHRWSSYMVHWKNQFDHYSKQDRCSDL
UniProt P51654, sequence (whole entry, looked up): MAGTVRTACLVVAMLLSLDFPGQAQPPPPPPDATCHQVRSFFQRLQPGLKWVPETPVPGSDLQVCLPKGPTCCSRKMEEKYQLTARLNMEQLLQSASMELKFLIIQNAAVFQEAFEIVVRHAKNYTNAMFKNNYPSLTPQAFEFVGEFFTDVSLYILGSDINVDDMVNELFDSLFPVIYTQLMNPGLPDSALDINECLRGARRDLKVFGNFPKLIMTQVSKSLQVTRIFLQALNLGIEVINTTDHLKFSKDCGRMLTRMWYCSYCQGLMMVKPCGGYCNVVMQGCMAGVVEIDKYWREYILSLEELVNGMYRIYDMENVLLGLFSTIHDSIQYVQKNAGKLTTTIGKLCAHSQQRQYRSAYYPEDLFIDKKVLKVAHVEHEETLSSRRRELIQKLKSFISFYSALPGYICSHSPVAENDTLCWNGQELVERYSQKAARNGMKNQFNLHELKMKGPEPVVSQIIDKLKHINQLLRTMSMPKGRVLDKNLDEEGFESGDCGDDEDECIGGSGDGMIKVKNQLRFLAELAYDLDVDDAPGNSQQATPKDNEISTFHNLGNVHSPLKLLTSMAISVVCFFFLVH
UniProt Q13464, sequence (whole entry, looked up): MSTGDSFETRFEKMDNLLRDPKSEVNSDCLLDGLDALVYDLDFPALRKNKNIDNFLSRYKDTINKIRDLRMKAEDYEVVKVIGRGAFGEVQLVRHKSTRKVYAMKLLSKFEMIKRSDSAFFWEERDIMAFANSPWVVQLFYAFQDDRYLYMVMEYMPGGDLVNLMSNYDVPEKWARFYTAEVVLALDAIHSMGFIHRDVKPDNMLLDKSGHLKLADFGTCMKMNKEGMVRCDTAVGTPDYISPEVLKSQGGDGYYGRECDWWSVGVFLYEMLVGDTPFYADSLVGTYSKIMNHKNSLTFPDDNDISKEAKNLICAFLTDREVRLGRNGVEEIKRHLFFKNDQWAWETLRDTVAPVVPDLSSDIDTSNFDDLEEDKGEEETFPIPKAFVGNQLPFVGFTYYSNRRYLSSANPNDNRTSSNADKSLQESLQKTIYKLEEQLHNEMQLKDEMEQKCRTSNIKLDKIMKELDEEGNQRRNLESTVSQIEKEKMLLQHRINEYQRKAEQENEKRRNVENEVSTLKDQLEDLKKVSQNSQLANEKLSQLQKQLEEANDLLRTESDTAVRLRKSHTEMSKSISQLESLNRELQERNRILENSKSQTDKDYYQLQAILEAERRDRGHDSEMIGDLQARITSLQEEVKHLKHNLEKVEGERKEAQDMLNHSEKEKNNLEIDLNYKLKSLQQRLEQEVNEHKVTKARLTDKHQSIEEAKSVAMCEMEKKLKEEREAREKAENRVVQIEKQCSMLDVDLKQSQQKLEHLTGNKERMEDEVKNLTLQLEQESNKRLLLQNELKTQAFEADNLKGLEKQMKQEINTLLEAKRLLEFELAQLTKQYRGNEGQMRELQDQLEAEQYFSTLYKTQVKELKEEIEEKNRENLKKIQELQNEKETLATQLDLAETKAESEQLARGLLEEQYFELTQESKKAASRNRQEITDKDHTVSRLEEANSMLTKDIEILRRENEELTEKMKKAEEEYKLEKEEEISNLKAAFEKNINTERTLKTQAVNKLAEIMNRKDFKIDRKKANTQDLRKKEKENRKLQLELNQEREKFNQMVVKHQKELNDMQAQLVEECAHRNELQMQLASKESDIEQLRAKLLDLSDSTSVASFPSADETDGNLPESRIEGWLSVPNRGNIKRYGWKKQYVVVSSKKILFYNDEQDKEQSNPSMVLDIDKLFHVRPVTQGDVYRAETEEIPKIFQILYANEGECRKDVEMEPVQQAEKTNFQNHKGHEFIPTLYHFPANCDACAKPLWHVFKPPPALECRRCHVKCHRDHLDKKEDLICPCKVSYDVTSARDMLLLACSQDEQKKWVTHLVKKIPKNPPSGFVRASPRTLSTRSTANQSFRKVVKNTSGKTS
UniProt Q9HX69, sequence (whole entry, looked up): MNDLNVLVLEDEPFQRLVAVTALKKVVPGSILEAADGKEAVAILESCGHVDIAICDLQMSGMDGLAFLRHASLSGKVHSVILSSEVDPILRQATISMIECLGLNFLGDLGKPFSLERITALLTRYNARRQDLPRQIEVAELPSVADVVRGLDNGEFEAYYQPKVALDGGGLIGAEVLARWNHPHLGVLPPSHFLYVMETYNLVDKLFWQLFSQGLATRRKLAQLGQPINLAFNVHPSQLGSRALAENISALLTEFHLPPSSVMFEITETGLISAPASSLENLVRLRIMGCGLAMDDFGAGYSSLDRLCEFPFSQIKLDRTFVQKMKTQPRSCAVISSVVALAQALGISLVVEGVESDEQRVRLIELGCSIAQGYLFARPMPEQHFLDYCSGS
UniProt Q8C7D2, sequence (whole entry, unmodified, looked up): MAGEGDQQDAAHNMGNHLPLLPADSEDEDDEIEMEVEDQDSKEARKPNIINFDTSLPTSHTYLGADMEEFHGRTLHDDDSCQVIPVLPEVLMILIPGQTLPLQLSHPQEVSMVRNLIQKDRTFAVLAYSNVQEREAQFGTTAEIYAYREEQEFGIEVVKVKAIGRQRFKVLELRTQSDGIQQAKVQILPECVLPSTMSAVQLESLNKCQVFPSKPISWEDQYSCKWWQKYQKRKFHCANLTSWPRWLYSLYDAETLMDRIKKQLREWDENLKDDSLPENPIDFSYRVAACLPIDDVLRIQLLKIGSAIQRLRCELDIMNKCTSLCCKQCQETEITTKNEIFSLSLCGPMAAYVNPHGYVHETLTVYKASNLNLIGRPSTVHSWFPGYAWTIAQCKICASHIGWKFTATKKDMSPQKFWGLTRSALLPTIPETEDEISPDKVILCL

`CC(C)C[C@H](NC(=O)[C@H](C)N)C(=O)N[C@@H](CC(C)C)C(=O)N[C@@H](C)C(=O)N[C@@H](CC(N)=O)C(=O)N[C@@H](Cc1c[nH]cn1)C(=O)N[C@@H](CCC(=O)O)C(=O)N[C@@H](CCC(=O)O)C(=O)N[C@@H](CC(C)C)C(=O)N[C@@H](Cc1ccccc1)C(=O)N[C@@H](CCC(N)=O)C(=O)N[C@H](C(=O)NCC(=O)NCC(=O)NCC(=O)N[C@@H](CO)C(=O)N[C@@H](CSC1CC(=O)N(CCNC(=O)CCCCCN2C(=CC=C3CCCC(C=CC4=[N+](CCCCS(=O)(=O)[O-])c5ccc(S(=O)(=O)O)cc5C4(C)C)=C3Oc3ccc(S(=O)(=O)O)cc3)C(C)(C)c3cc(S(=O)(=O)O)ccc32)C1=O)C(=O)O)[C@@H](C)O` (some centres unmarked) — result for “association time constant”: 4.8 min (Glypican-3 (Homo sapiens, UniProt P51654); binding, flow cytometry; Hep3B; 5 µM, 25 °C).
The fold resistance of `Cc1nc(C)c(C(=O)Nc2ccc(F)c(-c3nc4ncc(-c5ccccn5)cn4n3)c2)o1` is reported as no less than 300 fold (Proteasome subunits (Trypanosoma cruzi, UniProt Q4CU77+Q4D8U7, I29M); chymotrypsin-like activity; relative to: wild type).
For `CC(=O)N[C@H]1C(O)O[C@H](CO)[C@@H](O[C@@H]2O[C@H](CO)[C@H](O)[C@H](O)[C@H]2O)[C@@H]1O` (some centres unmarked), the ΔH was -12.7 kcal/mol (Galectin-3 (LGALS3, Homo sapiens, UniProt P17931); ITC; full-length protein).
The Km of `CC(C)C[C@H](N)C(=O)Nc1ccc2c(CC(N)=O)cc(=O)oc2c1` is reported as 85.4 ± 0.5 µM (Aminopeptidase N; enzyme activity, substrate; pH 7.5, 37 °C).
With `CC(=O)NCC(=O)NCC(=O)N[C@H](C(=O)NCC(=O)NCC(N)=O)[C@@H](C)OP(=O)(O)O` the substrate hydrolysis was 5.86% (Phospholysine phosphohistidine inorganic pyrophosphate phosphatase (LHPP, Homo sapiens, UniProt Q9H008); enzyme activity; concentration not given, 90 min, pH 7.8, with: substrate 100 µM).
`CC[C@H](C)[C@H](NC(=O)[C@H](Cc1c[nH]cn1)NC(=O)[C@H](CCCCNC(=O)[C@@H](NC(=O)[C@H](CCCCN)NC(=O)CSC[C@H](NC(=O)[C@H](Cc1ccccc1)NC(=O)[C@H](CCCCNC(=O)[C@H](CC(C)C)NC(=O)[C@@H]1CCCN1C(=O)[C@H](CCCCN)NC(=O)CCS[C@@H]1O[C@H](CO)[C@H](O)[C@H](O)[C@H]1O)NC(=O)[C@H](CC(C)C)NC(=O)[C@@H]1CCCN1C(=O)[C@H](CCCCN)NC(=O)C[C@@H]1O[C@@H](C)[C@@H](O)[C@@H](O)[C@@H]1O)C(N)=O)[C@@H](C)CC)NC(=O)[C@@H](NC(=O)[C@H](CCCCN)NC(=O)CSC[C@H](NC(=O)[C@H](Cc1ccccc1)NC(=O)[C@H](CCCCNC(=O)[C@H](CC(C)C)NC(=O)[C@@H]1CCCN1C(=O)[C@H](CCCCN)NC(=O)CCS[C@@H]1O[C@H](CO)[C@H](O)[C@H](O)[C@H]1O)NC(=O)[C@H](CC(C)C)NC(=O)[C@@H]1CCCN1C(=O)[C@H](CCCCN)NC(=O)C[C@@H]1O[C@@H](C)[C@@H](O)[C@@H](O)[C@@H]1O)C(N)=O)[C@@H](C)CC)C(N)=O` — result for “relative potency per fucoside”: 2.1 (Fucose-binding lectin PA-IIL (lecB, Pseudomonas aeruginosa, UniProt Q9HYN5); binding, isothermal titration calorimetry; divided by fucoside copies; relative to: monovalent fucoside KD over ligand KD).
The phosphorylation of `COc1cc(COc2ccc3c(c2)CN(C(=O)[C@H](CCC(=O)O)NC(=O)[C@H](CC(=O)O)NC(=O)[C@H](CC(=O)O)NC(=O)[C@H](CCC(=O)O)NC(=O)[C@@H](CCCNC(=N)N)NC(=O)[C@@H](CCCNC(=N)N)NC(=O)[C@@H](CCCNC(=N)N)NC(=O)[C@H](C)N(C)C(=O)[C@H](Cc2ccccc2)NC(=O)[C@@H](NC(=O)[C@H](Cc2ccccc2)NC(=O)[C@H](C)NC(=O)[C@H](CCCNC(=N)N)N(C)C(=O)[C@@H]2CCCN2C(=O)[C@H](CCCNC(=N)N)NC(=O)CNC(=O)c2ccc4c(c2)C2(OC4=O)c4ccc(O)cc4Oc4cc(O)ccc42)[C@@H](C)OCc2cc(OC)c(OC)cc2[N+](=O)[O-])[C@H](C(=O)N[C@@H](CCC(=O)O)C(=O)N[C@@H](CCC(=O)O)C(=O)N[C@H](C(N)=O)C(C)C)C3)c([N+](=O)[O-])cc1OC` is reported as 3.3 ± 0.9% (RAC-alpha serine/threonine-protein kinase (AKT1, Homo sapiens, UniProt P31749); reporter phosphorylation, substrate; concentration not given, 60 min, without photoactivation).
For `N#Cc1nc(N2CCOCC2)nc(N(Cc2ccc(F)cc2)CC2CCCC2)n1`, the selectivity ratio was 0.81 (CPL (Toxoplasma gondii, UniProt Q6DMN0); enzyme activity, inhibitor; relative to: human over Toxoplasma IC50).
For `CC[C@H](C)[C@H](NC(=O)[C@H](C)NC(=O)[C@H](CCC(=O)O)NC(C)=O)C(=O)NC1CCCC=CCCCC(C(=O)N[C@@H](CCC(N)=O)C(=O)N[C@@H](CC(C)C)C(=O)N[C@@H](CC(C)C)C(=O)N[C@@H](Cc2ccccc2)C(=O)N[C@H](C(=O)N[C@@H](Cc2c[nH]cn2)C(=O)N[C@@H](Cc2ccccc2)C(=O)N[C@@H](CCCNC(=N)N)C(=O)N[C@H](C(=O)NCC(N)=O)[C@@H](C)CC)[C@@H](C)CC)NC(=O)[C@H](CC(C)C)NC(=O)[C@H]([C@@H](C)CC)NC(=O)[C@H](CCCNC(=N)N)NC1=O` (some centres unmarked), “minimum DNA retardation concentration” read 37 µM (HIV-1 integrase and DNA substrate; DNA binding, gel retardation; 2 h, 37 °C, with: radiolabelled oligonucleotide DNA).
For `CC(COC(=O)c1ccccc1)OC(=O)C(N)Cc1ccccc1` (mixture of isomers), the Km was 2370 µM (Serine hydrolase BPHL (BPHL, Homo sapiens, UniProt Q86WA6); enzyme activity, substrate).
`CC(=O)N[C@@H](Cc1c[nH]c2ccccc12)C(=O)N[C@@H](CCC(=O)O)C(=O)N[C@@H](Cc1c[nH]cn1)C(=O)N[C@@H](CC(=O)O)C(=O)Nc1ccc2c(C)cc(=O)oc2c1` gave a Vmax of 38.8 ± 1.35 RFU/min (Caspase-9 (CASP9, Homo sapiens, UniProt P55211); substrate; concentration not given, full-length).
For `C=C(F)C(=O)N1CCN(c2nc(OC[C@@H]3CCCN3CCCOCCC(=O)N[C@H](C(=O)N3C[C@@H](O)C[C@H]3C(=O)NCc3ccc(-c4scnc4C)cc3)C(C)(C)C)nc3c2CCN(c2cccc4cccc(Cl)c24)C3)C[C@@H]1CC#N`, “time to target engagement” read no more than 1 h (GTPase KRas (KRAS, Homo sapiens, UniProt P01116, G12C); immunoblot band shift; SW1573; 2.5 µM).
The degradation of `Cn1cc(-c2cccc(CN3CCC4(CC3)COc3c4ccc4c3CN([C@H]3CCC(=O)NC3=O)C4=O)c2)cn1` is reported as 62% (Ikzf2/Crbn (Mus musculus, UniProt P81183+Q8C7D2, I391V); mouse Crbn I391V, thymus; oral, 10 mg/kg single dose, 6 h).
`O=C(O)CCCC(=O)O` gave an inhibition of 51.1 ± 2.18% (Acetylcholinesterase (ACHE, Homo sapiens, UniProt P22303); enzyme activity, inhibitor; 125 µg/mL).
Under “relative hydrolysis rate”, `CCC[C@H](N)C(=O)Nc1ccc2c(CC(N)=O)cc(=O)oc2c1` is recorded as 20 to 40% (Aminopeptidase N; enzyme activity, substrate; 3 µM, pH 7.5, 37 °C; relative to: L-hArg-ACC).
`NS(=O)(=O)c1ccc(NC(=O)c2ccccc2SSc2ccccc2C(=O)Nc2ccc(S(N)(=O)=O)cc2)cc1` has a potency ratio of roughly 10 fold (Gag-Pol polyprotein, integrase (gag-pol, Human immunodeficiency virus type 1 group M subtype B, UniProt P04585, C1427S); 3'-processing, inhibitor; C280S full-length IN; relative to: Mg2+ over Mn2+ dependent activity).
Under “ΔG of binding”, `CC(C)P(=S)(NP(=[Se])(C(C)C)C(C)C)C(C)C` is recorded as -4.52 kcal/mol (Alpha-amylase (Bacillus subtilis, UniProt P00691); fluorescence quenching; concentration not given, pH 6.8, 298 K).
`Nc1nc2c([C@@H]3O[C@@H]4COP(=O)(O)O[C@H]5[C@@H](O)[C@H](n6cnc7c(=O)[nH]c(N)nc76)O[C@@H]5COP(=O)(O)O[C@H]4[C@H]3O)snc2c(=O)[nH]1` — result for “product P2 share”: 42% (Cyclic di-GMP phosphodiesterase RocR (rocR, Pseudomonas aeruginosa, UniProt Q9HX69); cyclic dinucleotide hydrolysis, substrate, HPLC).
With `Cc1cc(O)cc(C)c1CC(N)C(=O)NC1CCNc2c(C(=O)Nc3ccccc3)cc(Cc3ccccc3)cc21` (centres unmarked) the Ke was 31.5 nM (Oprd1; GTPγS binding, antagonist; with: SNC80).
For `OC[C@@H]1[C@@H](O)[C@H](O)[C@@H](O)[C@@H]2N[C@H]12`, “time to full inhibition” read no more than 30 s (Lysosomal acid glucosylceramidase (GBA1, Homo sapiens, UniProt P04062, R534H); enzyme activity; concentration not given, higher concentrations, with: 2,4-DNP-β-Glc).
`CC(=O)NC(Cc1ccc(Br)c(Cl)c1)C(=O)N[C@@H](C)C(=O)N1CCC[C@H]1C(=O)N1CCC[C@H]1C(=O)N[C@@H](CCC(=O)O)C(=O)N[C@@H](Cc1c[nH]cn1)C(=O)N[C@@H](CO)C(=O)N[C@H](C(=O)N[C@@H](C)C(N)=O)[C@@H](C)OP(=O)(O)O` (some centres unmarked) has an inhibition of 5.54% (Rho-associated protein kinase 1 (ROCK1, Homo sapiens, UniProt Q13464); enzyme activity, inhibitor; 10 µM).
`CCN(Cc1ccccc1)C(=O)CCc1nc(CN2CCN(C(=O)Cc3ccc(OC)c(OC)c3)CC2)no1` gave an inactivation V1/2 of -76.9 ± 6.91 mV (Sodium channel protein type 9 subunit alpha (SCN9A, Homo sapiens, UniProt Q15858); sodium current, whole-cell patch clamp; HEK293, stable; 3 µM).
The remaining activity of `Cc1cc(O)cc(C)c1C[C@H](N)C(=O)N1Cc2ccccc2C[C@H]1C(=O)NCC(=O)NCc1ccccc1` is reported as 72 ± 2% (Oprd1; adenylyl cyclase activity, agonist; C6 cells expressing Oprd1; concentration not given, with: forskolin; relative to: forskolin control).
